Published values collected from several papers.
Every numbered part comes from another study and shows a few of its results, in no order.
Sequence of UniProt O75914 (whole entry, looked up): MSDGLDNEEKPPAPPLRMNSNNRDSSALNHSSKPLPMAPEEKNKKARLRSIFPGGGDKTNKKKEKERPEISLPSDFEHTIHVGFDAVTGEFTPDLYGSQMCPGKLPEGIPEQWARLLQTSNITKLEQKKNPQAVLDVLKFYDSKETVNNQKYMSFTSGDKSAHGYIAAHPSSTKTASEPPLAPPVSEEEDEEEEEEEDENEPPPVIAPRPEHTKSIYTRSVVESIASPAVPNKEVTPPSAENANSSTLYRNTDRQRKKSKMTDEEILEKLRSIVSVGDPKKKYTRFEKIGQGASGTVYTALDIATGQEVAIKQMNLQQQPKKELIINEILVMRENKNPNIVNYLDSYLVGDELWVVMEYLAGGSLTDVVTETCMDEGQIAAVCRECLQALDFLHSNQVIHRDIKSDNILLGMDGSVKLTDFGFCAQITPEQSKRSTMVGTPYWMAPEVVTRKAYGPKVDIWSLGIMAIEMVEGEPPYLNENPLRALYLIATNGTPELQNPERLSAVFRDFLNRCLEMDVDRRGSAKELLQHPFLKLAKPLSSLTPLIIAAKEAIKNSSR
Sequence of UniProt P42681 (whole entry, looked up): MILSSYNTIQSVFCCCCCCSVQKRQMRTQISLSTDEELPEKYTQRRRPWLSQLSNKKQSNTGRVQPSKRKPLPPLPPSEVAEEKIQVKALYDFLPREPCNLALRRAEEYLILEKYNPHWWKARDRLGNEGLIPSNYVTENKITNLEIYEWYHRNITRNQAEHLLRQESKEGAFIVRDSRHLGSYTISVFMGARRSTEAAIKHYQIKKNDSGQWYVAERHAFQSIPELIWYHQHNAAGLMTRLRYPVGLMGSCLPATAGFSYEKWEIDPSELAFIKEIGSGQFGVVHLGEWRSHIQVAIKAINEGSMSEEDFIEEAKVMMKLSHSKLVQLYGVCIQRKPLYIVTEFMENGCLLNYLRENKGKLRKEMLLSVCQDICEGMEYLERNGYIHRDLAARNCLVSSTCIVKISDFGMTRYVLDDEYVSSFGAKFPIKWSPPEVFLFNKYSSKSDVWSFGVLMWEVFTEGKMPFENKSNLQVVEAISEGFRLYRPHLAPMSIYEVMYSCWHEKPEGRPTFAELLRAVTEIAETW
Sequence of UniProt Q9UEE5 (whole entry, looked up): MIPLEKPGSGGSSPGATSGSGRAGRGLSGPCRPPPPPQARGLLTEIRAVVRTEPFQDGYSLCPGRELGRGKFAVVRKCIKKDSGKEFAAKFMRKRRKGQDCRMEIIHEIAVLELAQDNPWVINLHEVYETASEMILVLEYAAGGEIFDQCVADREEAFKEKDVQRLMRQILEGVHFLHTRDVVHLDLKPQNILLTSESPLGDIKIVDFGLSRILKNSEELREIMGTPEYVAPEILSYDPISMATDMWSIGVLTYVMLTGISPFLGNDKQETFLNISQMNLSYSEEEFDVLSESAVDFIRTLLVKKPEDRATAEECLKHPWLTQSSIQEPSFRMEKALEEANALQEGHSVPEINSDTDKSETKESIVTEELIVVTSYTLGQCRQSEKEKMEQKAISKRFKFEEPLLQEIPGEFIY
Sequence of UniProt Q7KZI7 (whole entry, looked up): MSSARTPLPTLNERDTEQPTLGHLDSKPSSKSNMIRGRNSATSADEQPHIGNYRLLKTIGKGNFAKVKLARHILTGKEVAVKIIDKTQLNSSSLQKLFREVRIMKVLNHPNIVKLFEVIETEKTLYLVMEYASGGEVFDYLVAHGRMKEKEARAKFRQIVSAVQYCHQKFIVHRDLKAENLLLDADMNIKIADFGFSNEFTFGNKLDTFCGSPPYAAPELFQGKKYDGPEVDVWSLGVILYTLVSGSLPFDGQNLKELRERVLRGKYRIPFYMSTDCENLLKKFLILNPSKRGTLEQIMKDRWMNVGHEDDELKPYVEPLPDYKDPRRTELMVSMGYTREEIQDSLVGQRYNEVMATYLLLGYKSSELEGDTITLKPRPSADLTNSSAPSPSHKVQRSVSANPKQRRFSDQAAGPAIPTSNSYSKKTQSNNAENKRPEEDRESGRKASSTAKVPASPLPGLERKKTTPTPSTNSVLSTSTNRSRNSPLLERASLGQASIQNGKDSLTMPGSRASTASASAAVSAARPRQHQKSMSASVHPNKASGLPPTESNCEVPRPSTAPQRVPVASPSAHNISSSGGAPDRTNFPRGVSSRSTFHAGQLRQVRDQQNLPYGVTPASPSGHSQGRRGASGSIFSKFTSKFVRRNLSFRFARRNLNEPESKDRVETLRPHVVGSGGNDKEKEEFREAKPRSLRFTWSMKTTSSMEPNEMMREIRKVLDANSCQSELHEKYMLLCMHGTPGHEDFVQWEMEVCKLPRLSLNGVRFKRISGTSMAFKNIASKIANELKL
Sequence of UniProt Q9HAZ1 (whole entry, looked up): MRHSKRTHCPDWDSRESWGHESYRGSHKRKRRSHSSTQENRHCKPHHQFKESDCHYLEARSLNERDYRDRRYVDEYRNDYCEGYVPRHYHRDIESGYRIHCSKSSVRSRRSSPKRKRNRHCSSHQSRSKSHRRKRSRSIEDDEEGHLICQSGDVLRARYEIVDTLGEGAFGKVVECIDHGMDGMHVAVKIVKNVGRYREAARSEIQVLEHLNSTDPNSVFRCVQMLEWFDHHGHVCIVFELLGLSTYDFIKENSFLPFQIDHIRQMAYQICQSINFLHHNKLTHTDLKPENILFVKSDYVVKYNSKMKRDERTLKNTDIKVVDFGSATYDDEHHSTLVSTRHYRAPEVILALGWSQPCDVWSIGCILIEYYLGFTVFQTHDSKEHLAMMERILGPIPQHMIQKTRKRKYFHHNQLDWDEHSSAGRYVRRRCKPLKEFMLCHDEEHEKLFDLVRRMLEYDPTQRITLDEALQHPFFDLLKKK
Sequence of UniProt P41240 (whole entry, looked up): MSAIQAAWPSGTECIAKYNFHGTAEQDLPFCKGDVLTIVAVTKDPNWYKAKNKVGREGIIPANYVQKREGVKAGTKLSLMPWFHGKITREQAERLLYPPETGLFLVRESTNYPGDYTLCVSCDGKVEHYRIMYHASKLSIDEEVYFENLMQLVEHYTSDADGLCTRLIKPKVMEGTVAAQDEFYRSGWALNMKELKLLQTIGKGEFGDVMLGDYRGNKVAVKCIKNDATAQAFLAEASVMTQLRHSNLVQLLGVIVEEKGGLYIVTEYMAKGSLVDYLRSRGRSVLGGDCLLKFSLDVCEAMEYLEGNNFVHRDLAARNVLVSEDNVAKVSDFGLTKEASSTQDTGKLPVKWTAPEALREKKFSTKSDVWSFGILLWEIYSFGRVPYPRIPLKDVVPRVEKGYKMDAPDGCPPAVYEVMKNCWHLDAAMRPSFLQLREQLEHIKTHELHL
Sequence of UniProt Q86UX6 (whole entry, looked up): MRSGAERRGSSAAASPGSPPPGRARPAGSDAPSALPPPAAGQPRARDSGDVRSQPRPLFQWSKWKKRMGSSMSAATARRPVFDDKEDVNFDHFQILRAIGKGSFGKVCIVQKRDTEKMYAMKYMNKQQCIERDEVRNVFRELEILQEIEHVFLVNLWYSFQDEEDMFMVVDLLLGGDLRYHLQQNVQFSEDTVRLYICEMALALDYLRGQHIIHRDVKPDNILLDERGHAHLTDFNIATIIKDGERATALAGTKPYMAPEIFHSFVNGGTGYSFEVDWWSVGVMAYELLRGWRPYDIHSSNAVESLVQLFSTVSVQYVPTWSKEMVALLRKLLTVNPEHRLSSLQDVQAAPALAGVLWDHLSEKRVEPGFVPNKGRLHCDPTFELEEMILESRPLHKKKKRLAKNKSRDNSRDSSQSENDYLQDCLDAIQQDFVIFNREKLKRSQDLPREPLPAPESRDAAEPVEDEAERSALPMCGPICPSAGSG

Study 1
Structure (SMILES): CCC(=O)N[C@@H]1CC[C@H](C(=O)N(C)c2ccc(-c3nc4ccccc4o3)cc2)C1
Method: competition with immobilised ligand
Tested at: 1 µM
target | effect on | remaining binding [%]
MARK3 (Homo sapiens, UniProt P27448) | cell-free assay | 100
KIT (Homo sapiens, UniProt P10721, T670I/V559D) | cell-free assay | 93
PAK3 (Homo sapiens, UniProt O75914) | cell-free assay | 98
CSK (Homo sapiens, UniProt P41240) | cell-free assay | 100
PRKACB (Homo sapiens, UniProt P22694) | cell-free assay | 100
TXK (Homo sapiens, UniProt P42681) | binding | 77
ERBB2 (Homo sapiens, UniProt P04626) | cell-free assay | 100
SBK3 (Homo sapiens, UniProt P0C264) | cell-free assay | 88
Tyrosine-protein kinase ABL1, non-phosphorylated (ABL1, Homo sapiens, UniProt P00519, F317I) | binding | 76
NEK11 (Homo sapiens, UniProt Q8NG66) | cell-free assay | 100
STK32C (Homo sapiens, UniProt Q86UX6) | cell-free assay | 73
FGR (Homo sapiens, UniProt P09769) | cell-free assay | 100
STK17A (Homo sapiens, UniProt Q9UEE5) | cell-free assay | 100

Study 2
Compound: CC(=O)c1ccc(N2CCOCC2)cc1O
Effect on: enzyme activity
Action: inhibitor
Tested at: 0.5 µM
Baseline: control
target | remaining activity
DDR2 (Homo sapiens, UniProt Q16832) | 104%
PAK3 (Homo sapiens, UniProt O75914) | 93.9%
AKT2 (Homo sapiens, UniProt P31751) | 96.2%
DCLK2 (Homo sapiens, UniProt Q8N568) | 101%
MARK2 (Homo sapiens, UniProt Q7KZI7) | 107%
MARK4 (Homo sapiens, UniProt Q96L34) | 99.4%
MAP2K1 (Homo sapiens, UniProt Q02750) | 95.2%
CAMK4 (Homo sapiens, UniProt Q16566) | 93%
CLK4 (Homo sapiens, UniProt Q9HAZ1) | 111%
MAPK14 (Homo sapiens, UniProt Q16539) | 97.1%
PLK3 (Homo sapiens, UniProt Q9H4B4) | 98.1%
CDC42BPB (Homo sapiens, UniProt Q9Y5S2) | 87.2%
TXK (Homo sapiens, UniProt P42681) | 103%

Single results of other studies
SMILES | test | test system | setting | quantity | result
Cc1cc2c(C(N)=O)c(N)n(-c3c(C)ccc(O)c3C)c2nc1C | KINOMEscan | 403 non-mutant kinase panel | 1000 nM, percent of control below 1 | number of kinases bound | 9
CC(C)n1cnc(-c2ccc(F)cc2)c1-c1ncc(C(=O)Nc2ccc(N3CCN(C)CC3)cc2)[nH]1 | – | human, idiopathic pulmonary fibrosis | 60 mg once daily, trial, treatment-emergent | patients with blurred vision | 0%

Some of these lines once more (study 1):
target | effect on | remaining binding [%]
MARK3 (Homo sapiens, UniProt P27448) | cell-free assay | 100
KIT (Homo sapiens, UniProt P10721, T670I/V559D) | cell-free assay | 93
PAK3 (Homo sapiens, UniProt O75914) | cell-free assay | 98
CSK (Homo sapiens, UniProt P41240) | cell-free assay | 100
